{"data": "Measured values from different studies", "note": "Lines come from different studies, so protocols differ. ± gives the spread as reported."}
{"SMILES": "N#CSCCOc1ccc(Oc2cccnc2)cc1", "organism": "Trypanosoma cruzi", "test": "parasite growth", "system": "Vero", "conditions": "72 h, intracellular, amastigote", "IC50": "7.4 µM"}
{"SMILES": "C#CCn1cc(/C=N/N2C(=O)CSC2=S)c2cc([N+](=O)[O-])ccc21", "organism": "Trypanosoma brucei gambiense", "system": "trypomastigotes, IL1922", "IC50": "> 59 µM"}
{"SMILES": "CCOc1cccc2sc(N(Cc3cccnc3)C(=O)C3CCCCC3)nc12", "organism": "Trypanosoma cruzi", "test": "imaging", "system": "3T3 fibroblasts, Tulahuen amastigote", "conditions": "48 h", "IC50": "0.84 ± 0.17 µM"}
{"SMILES": "O=C1CSC(=S)N1/N=C/c1c[nH]c2ccc([N+](=O)[O-])cc12", "organism": "Trypanosoma brucei rhodesiense", "system": "trypomastigotes, IL1501", "IC50": "> 61 µM"}
{"SMILES": "COc1ccc(C[C@H](N)C(=O)N[C@H]2[C@@H](O)[C@H](n3cnc4c(N(C)C)ncnc43)O[C@@H]2CO)cc1", "organism": "Trypanosoma cruzi", "test": "PrestoBlue", "system": "trypomastigote", "conditions": "48 h, DMSO stock sample", "IC50": "0.505 ± 0.0849 µM"}
{"SMILES": "CCOC(=O)c1c(N)sc2c1CCC(c1ccccc1)C2 (stereo not shown)", "organism": "Enterococcus faecalis", "test": "bacterial growth", "system": "ATCC 29122", "IC50": "44.1 ± 1.28 µg/mL"}
{"SMILES": "CC(C=CC1(C)C(C)CCC(=O)C1C)=CCc1c(O)c(C=O)c(C)c(Cl)c1OCC(=O)O (stereo not shown)", "organism": "Wickerhamomyces anomalus", "test": "O2 uptake, inhibitor", "system": "mitochondria", "conditions": "together with: succinate 15 mM", "IC50": "43.5 µM"}
{"SMILES": "O=C(Cn1ccnc1[N+](=O)[O-])NCc1ccccc1", "organism": "Trypanosoma cruzi", "test": "growth", "system": "Y, epimastigote", "conditions": "72 h", "IC50": "2.9 ± 0.6 µM"}
{"SMILES": "O=C1CSC(=S)N1/N=C/c1cn(Cc2ccccc2)c2ccc([N+](=O)[O-])cc12", "organism": "Trypanosoma brucei gambiense", "system": "trypomastigotes, IL1922", "IC50": "> 60 µM"}
{"SMILES": "C/C=C(C)/C=C/C=C/[C@H](OC)[C@@H](C)[C@@H](OC)[C@@H](C)CCc1oc2c(O)c(OC)cc(OC)c2c(=O)c1C", "organism": "Wickerhamomyces anomalus", "test": "O2 uptake, inhibitor", "system": "mitochondria", "conditions": "together with: duroquinol 1 mM", "IC50": "0.03 µM"}
{"note": "A few entries again:"}
{"SMILES": "O=C1CSC(=S)N1/N=C/c1cn(Cc2ccccc2)c2ccc([N+](=O)[O-])cc12", "organism": "Trypanosoma brucei gambiense", "system": "trypomastigotes, IL1922", "IC50": "> 60 µM"}
